Experimental data collected from several papers.
Each line is one published result; not all experiments were run side by side. ± gives the spread as reported.

| SMILES | assay | system | setting | how to read | endpoint | value |
| --- | --- | --- | --- | --- | --- | --- |
| CCCCCCCCCn1cc(C(N)(CO)CO)nn1 |  | APP/PS1 mouse, dentate gyrus | dose not given |  | c-Fos positive cells | increased |
| Cc1ccc(C(C)C)cc1NC(=O)COC(=O)/C=C/c1ccc(O)cc1O |  | Danio rerio embryos | 50 µM, 9 to 72 hpf |  | pigmentation level | ~57.3% |
| CCCCCCCCCCCCCCCC(=O)NCCCC[C@H](N)C(=O)N[C@@H](CC(=O)O)C(=O)N[C@H](C(=O)N[C@@H](Cc1c[nH]cn1)C(=O)N[C@@H](Cc1ccccc1)C(=O)N[C@@H](CCCNC(=N)N)C(=O)N[C@H](C(=O)N[C@@H](Cc1ccccc1)C(=O)N[C@@H](CCCNC(=N)N)C(=O)N[C@@H](CO)C(=O)N[C@@H](Cc1c[nH]cn1)C(=O)N[C@@H](CO)C(=O)N[C@@H](CC(=O)O)C(=O)N[C@@H](Cc1ccc(O)cc1)C(=O)N[C@@H](CCCNC(=N)N)C(=O)N[C@@H](CCCNC(=N)N)C(=O)N[C@H](C(=O)O)[C@@H](C)CC)[C@@H](C)O)[C@@H](C)O |  | C57BL/6J mouse, MCD diet | intraperitoneal, 1.2 nmol/g, 3 weeks, 3 times weekly |  | serum total cholesterol | 78.6 ± 12.7 mg/dL |
| Cc1cc([C@H](C(=O)N2C[C@H](O)C[C@H]2C(=O)N[C@@H](CC(=O)N2CCC(N3CCC(C#Cc4ccc(C(=O)N[C@H]5C(C)(C)[C@H](Oc6ccc(C#N)c(Cl)c6)C5(C)C)cc4)CC3)CC2)c2ccc(-c3scnc3C)cc2)C(C)C)on1 |  | mouse MDA-MB-453 xenograft, tumour | ip, 25 mg/kg single dose, 24 h |  | c-Myc mRNA level | decreased |
| NC[C@@H](C(=O)Nc1ccc(-c2cn[nH]c2)cc1)c1ccccc1 |  | NZW rabbit, magnetic bead ocular hypertension | topical, 0.03 %, 30 h | reference: baseline | maximum IOP reduction | 5.3 ± 0.6 mm Hg |
| O=C(Nc1ccc(C(F)(F)F)cc1Cl)c1cc(Cl)ccc1O |  | mice LuCaP sample A PDX, serum | oral, 150 mg/kg |  | PSA level | decreased |
| CC=C1C(OC2OC(CO)C(O)C(O)C2O)OC=C(C(=O)OC)C1CC(=O)OCC1OC(OCCc2ccc(O)cc2)C(O)C(O)C1O (centres unmarked) | refers to: propionic acid | tumour-bearing mice, faeces | oral, 109.2 mg/kg daily, 10 days | reference: untreated tumour group | faecal short-chain fatty acid increase | 30.8% |
| Cc1cc(O)c(C=O)c2c1C(=O)Oc1c(CO)c(O)c3c(c1O2)C(O)OC3=O (centres unmarked) | mating test | rat, male, streptozotocin-induced diabetes | 5 mg/kg |  | corpora lutea per female | 12.3 ± 0.82 |
| CC1(C)C(=CC=CC=CC=CC2=[N+](CCCCCC(=O)NCCCC[C@@H]3NC(=O)[C@@H](Cc4ccccc4)NC(=O)[C@H](CC(=O)O)NC(=O)CNC(=O)[C@H](CCCNC(=N)N)NC3=O)c3ccc4ccccc4c3C2(C)C)N(CCCCS(=O)(=O)[O-])c2ccc3ccccc3c21 |  | BALB/c nude mice, orthotopic U87MG-luc glioma | dose not given, 72 h, brain |  | ex vivo tumour fluorescence | not detected |
| C=C(c1ccc(C(=O)O)c(F)c1)c1cc2c(cc1C)C(C)(C)C=CC2(C)C | RNA sequencing, refers to: Inmt mRNA | rat, brain | dose not given, 24 h, single dose | reference: vehicle | log2 fold change | -0.13 |
| CC[C@H]1[C@@H](O)[C@@H]2[C@H](CC[C@]3(C)[C@@H]([C@H](C)CCOS(=O)(=O)[O-])CC[C@@H]23)[C@@]2(C)CC[C@@H](O)C[C@@H]12.[Na+] |  | ob/ob NASH mice, liver | oral, 10 mg/kg once daily, 8 wk |  | liver total cholesterol | 18 ± 1.5 mg/g tissue |
| COc1cc2c(cc1OC)C(c1ccc(F)cc1F)N(CCCOc1ccc(CCC(=O)O)cc1)CC2 (centres unmarked) |  | diet-induced obese C57BL/6J mice | oral, 50 mg/kg, 38 days | reference: vehicle | body weight | decreased |
| CC12CC(O)C3CC1(OC1OC(CO)C(O)C(O)C1O)C3(COC(=O)c1ccccc1)C(=O)O2 (centres unmarked) |  | mice, reserpine-induced depression | 14 mg/kg, 7 days, 4 h after reserpine |  | body temperature | 35.2 ± 0.51 °C |
| CC(=O)[O-].O.O.[O-]c1ccc(Br)cc1C=NCCN1CCOCC1.[Zn+2] | nitric oxide scavenging |  | 240 µM |  | inhibition | 52.4% |
| O=C(CCc1ccc(CNC(C(=O)OC2CCCC2)C2CCCCC2)cn1)NO (centres unmarked) | flow cytometry, refers to: lysine acetylation | human, blood monocytes | concentration not given |  | duration of increased acetylation | ≥ 12 h |
| CSCC[C@H](NC(=O)[C@H](CC(C)C)NC(=O)CNC(=O)[C@H](Cc1ccccc1)NC(=O)[C@H](Cc1ccccc1)NC(=O)[C@H](CCC(N)=O)NC(=O)[C@H](CCC(N)=O)NC(=O)[C@@H]1CCCN1C(=O)[C@H](CCCCN)NC(=O)[C@@H]1CCCN1C(=O)[C@@H](N)CCCNC(=N)N)C(N)=O |  | diabetic mice, hindlimb ischemia | intravenous, 2.5 nmol/kg immediately and at day 6, 28 days |  | limb salvage | 21.4% |
| COc1ccc(C2CC(c3ccc(C)cc3)=Nc3ccccc3S2)cc1OC (centres unmarked) |  | Wistar rat, STZ-induced diabetes, serum | 10 mg/kg, 28 days |  | LDL cholesterol | 121 ± 4.67 mg/dL |
| C[N+]1=C(C=CC=CC=C2N(CCCCCC(=O)NCCCC[C@H](NC(=O)[C@@H](CCC(=O)O)NC(=O)[C@@H](CCC(=O)O)NC(=O)[C@@H](CCC(=O)O)NC(=O)CCCCCNC(=O)C3CCC(CNC(=O)CC[C@H](NC(=O)N[C@@H](CCC(=O)O)C(=O)O)C(=O)O)CC3)C(N)=O)c3ccc4ccccc4c3C2(C)C)C(C)(C)c2c1ccc1ccccc21 (some centres unmarked) | fluorescence molecular tomography | mouse, PC-3 flu tumour xenograft, PC-3 flu tumour | iv, 1 nmol, 24 h |  | probe amount in tumour | 4.5 ± 0.8 pmol |
| CC(=O)C1=C(C)NC(=O)NC1c1ccc(F)cc1 (centres unmarked) | DPPH radical scavenging |  |  | reference: gallic acid | antioxidant potency ratio | ~2 fold |
| CC(=O)N[C@@H](CC(N)=O)C(=O)NCC(=O)N[C@@H](C)C(=O)N[C@@H](C)C(N)=O | 1H NMR | sodium phosphate buffer 50 mM | pH 5.1, 55 °C |  | rate constant succinimide to α-Asp | 0.068 h⁻¹ |
| COc1c2c(cc3oc(C)cc(=O)c13)O[C@H](C(C)(C)O[C@@H]1O[C@H](CO)[C@@H](O)[C@H](O)[C@H]1O)C2 | analgesia | mouse | oral, 1 mg/kg, 0.5 h |  | hot plate latency | 9.25 ± 1.56 s |
| CN(C)C(=O)c1cncc(N2Cc3cn(Cc4ccc(F)cc4)nc3C2)n1 | EAE clinical score | mouse EAE model | ip, 10 mg/kg daily from day 11, 264 h, unit not given | reference: vehicle | effect size d | -3.45 |
| CCCCCCCOC(=O)Cc1c(C)n(C(=O)c2ccc(Cl)cc2)c2ccc(OC)cc12 | hot plate test | BALB/c mice | 50 mg/kg, 120 min |  | latency of nociceptive response | 14.9 ± 0.52 s |
| O=C(/C=C(O)/C=C/c1cccs1)/C=C/c1cccs1 | FRAP |  |  |  | antioxidant capacity | 0.01 Trolox equivalents |
| CCCCC1NC(=O)c2ccccc21 (racemic) |  | Sprague Dawley rat cerebral ischaemia-reperfusion, ischaemic core | 50 mg/kg | reference: model group | GSH-Px activity | increased |
| CCN(CC)C(=O)c1ccc(-c2cc(NCCCN3CCCCC3)c3ccccc3n2)cc1 |  | diet-induced obese mice, liver | food admixture, 0.05% w/w in diet, 2 weeks, together with: insulin ip 10 min |  | insulin receptor phosphorylation | increased |
